# Experimental data of several laboratories.
# ± marks the error that the study gave.
Compound,test system,setting,tissue uptake [%ID/g]
CC(C)[C@H](NC(=O)[C@@H]1CCCN1C(=O)[C@H](CCCNC(=N)N)NC(=O)[C@H](CS)NC(=O)[C@H](Cc1c[nH]c2ccccc12)NC(=O)[C@H](CCCNC(=N)N)NC(=O)[C@@H](Cc1ccccc1)NC(=O)[C@H](Cc1c[nH]cn1)NC(=O)[C@H](CCC(=O)O)NC(=O)[C@H](CS)NC(=O)[C@H](CS)NC(=O)CNC(=O)[C@@H]1CC(=O)N[C@@H](CCCNC(=N)N)C(=O)NCC(=O)N[C@@H](CC(=O)O)C(=O)N[C@H](Cc2ccc(O)cc2)C(=O)N1)C(N)=O [technetium-99m labelled],"C57 mouse, female, B16/F1 melanoma, pancreas","intravenous, 0.037 MBq, 24 h",0.31 ± 0.15
CN1C(=O)[C@@H](Cc2ccc(O)c(I)c2)NC(=O)CNC(=O)[C@H](Cc2ccc3ccccc3c2)NC(=O)[C@H](CCCNC(=N)N)NC(=O)[C@H]1CCCNC(=O)c1ccc(CNC(=O)CN2CCN(CC(=O)O)CCN(CC(=O)O)CCN(CC(=O)O)CC2)cc1 [lutetium-177 labelled],"female CB-17 SCID mouse, Daudi xenograft, brain","intravenous, 6 h, CXCR4 blocking, added: AMD3100 2 mg/kg coinjected",0.02 ± 0.002
CCCC[C@H](NC(=O)CNC(=O)CNC(=O)CN1CCN(CC(=O)O)CCN(CC(=O)O)CCN(CC(=O)O)CC1)C(=O)N[C@H]1CC(=O)NCCCC[C@@H](C(N)=O)NC(=O)[C@H](Cc2c[nH]c3ccccc23)NC(=O)[C@H](CCCNC(=N)N)NC(=O)[C@@H](Cc2ccccc2)NC(=O)[C@H](Cc2c[nH]cn2)NC1=O [lead-203 labelled],"C57 mouse, heart","intravenous, 0.056 MBq, 24 h",0.16 ± 0.07
CCCC[C@H](NC(=O)CNC(=O)CNC(=O)CN1CCN(CC(=O)O)CCN(CC(=O)O)CC1)C(=O)N[C@H]1CC(=O)NCCCC[C@@H](C(N)=O)NC(=O)[C@H](Cc2c[nH]c3ccccc23)NC(=O)[C@H](CCCNC(=N)N)NC(=O)[C@@H](Cc2ccccc2)NC(=O)[C@H](Cc2c[nH]cn2)NC1=O [copper-64 labelled],"female C57 mouse, B16/F1 melanoma, kidneys","intravenous, 0.037 MBq, 0.5 h",9.28 ± 0.77
CC(C)[C@H](NC(=O)[C@@H]1CCCN1C(=O)[C@H](CCCNC(=N)N)NC(=O)[C@H](CS)NC(=O)[C@H](Cc1c[nH]c2ccccc12)NC(=O)[C@H](CCCNC(=N)N)NC(=O)[C@@H](Cc1ccccc1)NC(=O)[C@H](Cc1c[nH]cn1)NC(=O)[C@H](CCC(=O)O)NC(=O)[C@H](CS)NC(=O)[C@H](CS)NC(=O)[C@@H]1CC(=O)N[C@@H](CCCNC(=N)N)C(=O)NCC(=O)N[C@@H](CC(=O)O)C(=O)N[C@H](Cc2ccc(O)cc2)C(=O)N1)C(N)=O [technetium-99m labelled],"C57 mouse, female, B16/F1 melanoma, lung","intravenous, 0.037 MBq, 0.5 h",8.24 ± 2.27
O=C([O-])CN1CCN(CC(=O)[O-])CCN(CC(=O)NCCc2ccc3c(c2)C2C=CCC2C(c2cc4c(cc2Br)OCO4)N3)CCN(CC(=O)[O-])CC1.[111In+3] (centres unmarked),"mouse, Hec50 endometrial tumour, spleen",2 h post injection,0.26 ± 0.07
CCCC[C@H](NC(=O)CNC(=O)CNC(=O)CN1CCN(CC(=O)O)CCN(CC(=O)O)CCN(CC(=O)O)CC1)C(=O)N[C@H]1CC(=O)NCCCC[C@@H](C(N)=O)NC(=O)[C@H](Cc2c[nH]c3ccccc23)NC(=O)[C@H](CCCNC(=N)N)NC(=O)[C@@H](Cc2ccccc2)NC(=O)[C@H](Cc2c[nH]cn2)NC1=O [copper-64 labelled],"C57 mouse B16/F1 melanoma, pancreas",24 h,1.4 ± 0.28
CN(C)c1ccc(-c2nc3ccc(OCCCCCN4CCN5CCN(CC4)CC(=O)[O][Al]([18F])[O]C(=O)C5)cc3s2)cc1,"ICR mouse, liver","intravenous, 2 min",37.7 ± 3.47
